Measured values gathered from unrelated publications.
Lines come from different studies, so protocols differ. Several values in a cell are separate wells, animals, samples, runs or records. ± gives the spread as reported.
MT-CYB/UQCRFS1: MT-CYB/UQCRFS1 (Homo sapiens, UniProt P00156+P47985)
T1: ssDNA, aptamer; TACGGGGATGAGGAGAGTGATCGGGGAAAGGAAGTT
T2: preQ1-III riboswitch A52G (Faecalibacterium prausnitzii); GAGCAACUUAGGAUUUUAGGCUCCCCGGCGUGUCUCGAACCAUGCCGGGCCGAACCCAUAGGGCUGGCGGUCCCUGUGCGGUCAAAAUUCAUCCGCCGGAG

C[N+](C)(C)Cc1cccc(N=Nc2cccc(C[N+](C)(C)C)c2)c1
Schild plot slope (muscarinic receptor, frog; potassium current, antagonist; atrial trabeculae; with: carbachol): 1

Cc1noc(NS(=O)(=O)c2ccc(N=NN(C)O)cc2)c1C
inhibition (α-glucosidase, rat intestine; enzyme activity; 240 µg/mL, with: 4-nitrophenyl α-D-glucopyranoside): 43.25 ± 0.01%

NC(=O)NOCCCCCCCCCCCCCC[P+](c1ccccc1)(c1ccccc1)c1ccccc1.O=C([O-])C(F)(F)F
oxygen consumption rate (MT-CYB/UQCRFS1; complex III-dependent respiration, Seahorse XF96; HCT-116; 1.5 µM, 24 h; reference: control): 62 ± 10.3%

CC[C@H](C)[C@@H]1NC(=O)[C@H](C)NC(=O)[C@H]([C@@H](C)CC)NC(=O)[C@H](CCC(N)=O)NC(=O)[C@H](C)NC(=O)[C@H](CCCNC(=N)N)NC(=O)[C@H](C(C)C)NC(=O)[C@H](CC(C)C)NC(=O)[C@H](CCC(=O)O)NC(=O)[C@H](CCCNC(=N)N)NC(=O)CNC(=O)[C@@H](NC(=O)[C@H](CC(C)C)NC(=O)[C@H](CCCCN)NC(=O)[C@@H](NC(=O)[C@@H](NC(=O)[C@H](CCC(=O)O)NC(=O)[C@H](CCC(=O)O)NC(=O)[C@H](CCSC)NC(=O)[C@H](Cc2c[nH]c3ccccc23)NC(=O)[C@H](CO)NC(=O)[C@@H](N)CC(=O)O)C(C)C)[C@@H](C)CC)CSSC[C@@H]2NC(=O)[C@@H](NC(=O)[C@H](CCCCN)NC(=O)[C@H](CC(N)=O)NC(=O)[C@H](C)NC(=O)[C@H](CC(C)C)NC(=O)[C@H](C)NC(=O)[C@H](CO)NC(=O)[C@H](Cc3ccc(O)cc3)NC(=O)[C@H](CC(C)C)NC(=O)[C@H](CCC(N)=O)NC(=O)c3ccc(-c4c5ccc(=[N+](C)C)cc-5oc5cc(N(C)C)ccc45)c(C(=O)[O-])c3)CSSC[C@H](NC(=O)CNC(=O)[C@H](C(C)C)NC(=O)[C@H](Cc3c[nH]cn3)NC2=O)C(=O)N[C@@H]([C@@H](C)O)C(=O)N[C@@H](CCCCN)C(=O)N[C@@H](CCCNC(=N)N)C(=O)N[C@@H](CO)C(=O)N[C@@H](CC(C)C)C(=O)N[C@@H](C)C(=O)N[C@@H](CCCNC(=N)N)C(=O)N[C@@H](Cc2ccccc2)C(=O)N[C@H](C(=O)O)CSSC[C@@H](C(=O)NCC(=O)N[C@@H](CCSC)C(=O)N[C@@H](CO)C(=O)N[C@H](C(=O)N[C@@H](Cc2c[nH]c3ccccc23)C(=O)N[C@@H](CO)C(=O)O)[C@@H](C)O)NC1=O
koff fast phase (Relaxin receptor 1 (RXFP1, Homo sapiens, UniProt Q9HBX9, F76A/Y80A); NanoBRET dissociation; infinite dilution, with: 10 nM relaxin): 0.00852 s⁻¹

CO[C@H]1O[C@H](COS(=O)(=O)O)[C@@H](O[C@@H]2O[C@@H](C(=O)O)[C@@H](O[C@H]3O[C@H](COS(=O)(=O)O)[C@@H](O[C@@H]4O[C@H](C(=O)O)[C@@H](O[C@H]5O[C@H](COS(=O)(=O)O)[C@@H](O)[C@H](O)[C@H]5NS(=O)(=O)O)[C@H](O)[C@H]4O)[C@H](OS(=O)(=O)O)[C@H]3NS(=O)(=O)O)[C@H](O)[C@H]2OS(=O)(=O)O)[C@H](O)[C@H]1NS(=O)(=O)O
binding free energy ΔG (Beta-2-glycoprotein 1, domain V (APOH, Homo sapiens, UniProt P02749, V266L); isothermal titration calorimetry; 298 K, with: 50 mM NaCl): -7320 cal/mol

COc1cc(/C=C/c2ccc(O)cc2)cc(OC)c1
koff ratio (O-methyltransferase (Sorghum bicolor, UniProt A0A1B6PFV1); biolayer interferometry; with: saturating SAM; reference: SAM-bound over apo): 2.38 fold

CCCCC[C@@H]1OC(=O)[C@@H](C)N(C)C(=O)[C@H](CCCCC)OC(=O)[C@@H](C)N(C)C(=O)[C@H](CC(=O)O)OC(=O)[C@@H](C)N(C)C(=O)[C@H](CCCCC)OC(=O)[C@@H](C)N(C)C1=O
open dwell time constant T1 (ryanodine receptor 2 (Sus scrofa, UniProt A0A5G2R1W3); single-channel gating, planar lipid bilayer; 50 µM, pCa 7, porcine): 1.5 ± 1.4 ms

CC[C@@H]1[C@H](F)C(=O)N[C@@H]1COc1nccc2cc(C(N)=O)c(OC)cc12
inhibition (CAMK4 (Homo sapiens, UniProt Q16566); ATP-site probe binding, ActivX profiling; THP-1 cell lysate; 0.04 mM, Lys2 site): 19.1%

Nc1ncnc2c1ncn2[C@@H]1O[C@H](COP(=O)(O)OP(=O)(O)OP(=O)(O)O)[C@@H](O)[C@H]1O
Kd (T1, ssDNA, aptamer; molecular beacon fluorescence quenching): 1760 nM

CC(=O)N[C@@H](C)C(=O)N[C@@H](CC(N)=O)C(=O)NCC(=O)N[C@@H](CC(N)=O)C(=O)N[C@@H](C)C(=O)N[C@@H](CCC(=O)O)C(=O)N[C@@H](CC(N)=O)C(=O)N[C@@H](CCC(=O)O)C(=O)N[C@@H](CCC(=O)O)C(=O)N[C@@H](CC(N)=O)C(=O)NCC(=O)N[C@@H](CCC(=O)O)C(=O)N[C@@H](CCC(N)=O)C(=O)N[C@@H](CCC(=O)O)C(=O)N[C@@H](C)C(=O)N[C@@H](CC(=O)O)C(=O)N[C@@H](CC(N)=O)C(=O)N[C@@H](CCC(=O)O)C(=O)N[C@H](C(=O)N[C@@H](CC(=O)O)C(N)=O)C(C)C
binding stoichiometry (Kelch-like ECH-associated protein 1, Kelch domain (KEAP1, Homo sapiens, UniProt Q14145); ITC; concentration not given): 1.09

C=CC(=O)N1CCC(COCC(=O)N2CCN(c3nc(-c4cnc(N)nc4C(F)F)nc(N4CCOC[C@@H]4C)n3)CC2)CC1
remaining binding (IKBKE (Homo sapiens, UniProt Q14164); KINOMEscan; 1 µM): 84%

O=S(=O)(Nc1nccs1)c1ccc(N=NN(O)c2ccccc2)cc1
inhibition (α-glucosidase, rat intestine; enzyme activity; 180 µg/mL, with: 4-nitrophenyl α-D-glucopyranoside): 35 ± 0.041%

CC(=O)c1n[nH]c2ccc(-c3cnc4ccc(N(C)C5CCOCC5)nn34)cc12
DAP12/DAP12 reporter signal (TYRO protein tyrosine kinase-binding protein (TYROBP, Homo sapiens, UniProt O43914); inhibitor; split luciferase reporter cells; 1 µM, after wash; reference: without wash): no effect

NCc1c[nH]c2nc(N)[nH]c(=O)c12
Kd (T2, preQ1-III riboswitch A52G (Faecalibacterium prausnitzii); ITC; NaCl 100 mM, apparent, single-site fit): 9.8 nM

CC(C)C(=O)Nc1n[nH]c2cc(-c3cccc(NS(=O)(=O)C4CC4)c3)ccc12
ADP produced (PIP5K1C (Homo sapiens, UniProt O60331); ADP-Glo; 10 µM, with: 10 µM ATP): 0.626 µM

NCCCCC(=O)O
normalised MST signal (SLC6A6 (Homo sapiens, UniProt P31641, Y138A); binding, microscale thermophoresis; 125 µM, room temperature, with: 50 nM labelled protein; higher = more binding): -0.0164

NC(=O)NOCCCCCCCCCC[P+](c1ccccc1)(c1ccccc1)c1ccccc1.O=C([O-])C(F)(F)F
oxygen consumption rate (MT-CYB/UQCRFS1; complex III-dependent respiration, Seahorse XF96; HCT-116; 50 µM, 24 h; reference: control): 36.8 ± 3.94%

Nc1ncnc2c1ncn2[C@@H]1O[C@H](COP(=O)(O)OP(=O)(O)OP(=O)(O)O)[C@@H](O)[C@H]1O
Km (hexokinase yeast; substrate; pH 8.0, 25 °C, 1.5 mM MgCl2, with: glucose varied): 29.5 µM

Cc1cc(NS(=O)(=O)c2ccc(N=NN(C)O)cc2)no1
inhibition (α-glucosidase, rat intestine; enzyme activity; 300 µg/mL, with: 4-nitrophenyl α-D-glucopyranoside): 70 ± 1.38%

NC(=O)NOCCCCCCCCCCCC[P+](c1ccccc1)(c1ccccc1)c1ccccc1.O=C([O-])C(F)(F)F
oxygen consumption rate (MT-CYB/UQCRFS1; complex III-dependent respiration, Seahorse XF96; HCT-116; 3 µM, 24 h; reference: control): 35.9 ± 11.5%

CCN1CCC[C@H]1CNC(=O)c1c(O)c(Cl)cc(Cl)c1OC
log2 fold change (G-protein coupled receptor 161 (GPR161, Homo sapiens, UniProt Q8N6U8); β-arrestin recruitment, TANGO luminescence, item: GPR161; concentration not given; reference: basal luminescence): -0.058

COc1cc(-c2cc(C(C)=O)n3ccccc23)c(OC)cc1Cn1ccnc1
ΔTm (Peregrin (BRPF1, Homo sapiens, UniProt P55201)): -0.5 °C

Nc1ncnc2c1ncn2[C@H]1C[C@H](O)[C@@H](CO)O1
GTP hydrolysis (GNAS, with Gbeta and Ggamma (Homo sapiens, UniProt P63092); modulator; 100 µM, without A2AR; reference: Gs alone): 98.4% and 94.7% and 96%

CCCCOc1cc(C(=O)NCCN(CC)CC)c2ccccc2n1
inactivation V1/2 (PKD2L1 (Homo sapiens, UniProt Q9P0L9); ion current, whole-cell patch clamp; 10 µM, 2 s prepulse): -20 mV

Nc1ncnc2c1ncn2[C@@H]1O[C@H](COP(=O)(O)CP(=O)(O)OP(=O)(O)O)[C@@H](O)[C@H]1O
specific binding (P2X purinoceptor 1 (P2RX1, Homo sapiens, UniProt P51575, D170A); saturation binding; 130 nM): 452 corrected cpm and 371 corrected cpm and 574 corrected cpm

O=C1Nc2c(ccc(Cl)c2Cl)C1=NO
Hill coefficient (KCNN4/CALM1 (Homo sapiens, UniProt O15554+P0DP23, N201F); ion current, activator, whole-cell patch clamp; N201F mutant): 1.3

CCCC(C)N1CCC(N(Cc2cccc(NC(=O)CCl)c2)C(=O)Nc2cccc(C(F)(F)F)c2)CC1 (stereo not shown)
covalent adduct formation (DCN1-like protein 1 (Homo sapiens, UniProt Q96GG9); covalent binder, LC-TOF mass spectrometry; 60 µM, overnight, 4 °C, with: DCN1-like protein 1 30 µM): 10%

Cc1nc(CSc2nc(SCc3ccc(C(C)C)cc3)nc(=O)[nH]2)cs1
decatenated DNA (TOP2A (Homo sapiens, UniProt P11388); decatenation; 125 µM, replicate 1): 0%

Nc1ncnc2c1ncn2[C@@H]1O[C@H](COP(=O)(O)OP(=O)(O)O)[C@@H](O)[C@H]1O
ΔH (GUK1 (Homo sapiens, UniProt Q16774); ITC; molar ratio 1.319): -0.838 kcal/mol

Nc1nc2c(ncn2[C@@H]2O[C@@H]3COP(=O)(O)O[C@H]3[C@H]2O)c(=O)[nH]1
Hill coefficient (Cone cGMP-gated channel (Morone saxatilis, UniProt Q3I0N1+Q3I0N2); channel current, agonist, suction electrode; cone outer segments; with: 0.5 µM Ca2+): 2.07 ± 0.32

O=C1Nc2ccc(Br)cc2C1=O
share of total products (Dehaloperoxidase B, ferric (Amphitrite ornata, UniProt Q9NAV7); product, HPLC; with: 5-bromoindole 500 µM, H2O2 50 µM): 4.2%

Repeated from above:
NC(=O)NOCCCCCCCCCC[P+](c1ccccc1)(c1ccccc1)c1ccccc1.O=C([O-])C(F)(F)F
oxygen consumption rate (MT-CYB/UQCRFS1; complex III-dependent respiration, Seahorse XF96; HCT-116; 50 µM, 24 h; reference: control): 36.8 ± 3.94%

O=C1Nc2c(ccc(Cl)c2Cl)C1=NO
Hill coefficient (KCNN4/CALM1 (Homo sapiens, UniProt O15554+P0DP23, N201F); ion current, activator, whole-cell patch clamp; N201F mutant): 1.3

C[N+](C)(C)Cc1cccc(N=Nc2cccc(C[N+](C)(C)C)c2)c1
Schild plot slope (muscarinic receptor, frog; potassium current, antagonist; atrial trabeculae; with: carbachol): 1

Nc1ncnc2c1ncn2[C@@H]1O[C@H](COP(=O)(O)CP(=O)(O)OP(=O)(O)O)[C@@H](O)[C@H]1O
specific binding (P2X purinoceptor 1 (P2RX1, Homo sapiens, UniProt P51575, D170A); saturation binding; 130 nM): 452 corrected cpm and 371 corrected cpm and 574 corrected cpm

Nc1nc2c(ncn2[C@@H]2O[C@@H]3COP(=O)(O)O[C@H]3[C@H]2O)c(=O)[nH]1
Hill coefficient (Cone cGMP-gated channel (Morone saxatilis, UniProt Q3I0N1+Q3I0N2); channel current, agonist, suction electrode; cone outer segments; with: 0.5 µM Ca2+): 2.07 ± 0.32
